Measurements from different studies.
Values joined by “and” are separate records of one study, mostly repeats; a detail may differ. ± marks the error that the study gave.

Structure (SMILES) | tested on | assay | test system | conditions | scale | endpoint | value
C[C@]12C[C@H](c3ccc(S(C)(=O)=O)cc3)C3=C4CCC(=O)C=C4CC[C@H]3[C@@H]1CC[C@@]2(O)C(F)(F)C(F)(F)F |  | item: compound (parent) | healthy human volunteers, pooled plasma | oral, 5 mg daily, day 28, 24 h |  | plasma concentration | 12.2 ng/mL
Cc1noc(C)c1Cn1cc(N2C(=O)CN(Cc3cccc(OS(=O)(=O)O)c3)C2=O)cn1 |  |  | rat Sprague-Dawley male, plasma | intravenous, 1 mg/kg of parent drug, 12 h |  | plasma concentration | 12 ng/mL
CC(=O)N[C@H](CC(=O)O)C(=O)N[C@H](Cc1c[nH]c2ccccc12)C(=O)N[C@H](Cc1ccccc1)C(=O)N[C@H](CCCCN)C(=O)N[C@H](C)C(=O)N[C@H](Cc1ccccc1)C(=O)N[C@H](Cc1ccc(O)cc1)C(=O)N[C@H](CC(=O)O)C(=O)N[C@H](CCCCN)C(=O)N[C@@H](C(=O)N[C@H](C)C(=O)N[C@H](CCC(=O)O)C(=O)N[C@H](CCCCN)C(=O)N[C@H](Cc1ccccc1)C(=O)N[C@H](CCCCN)C(=O)N[C@H](CCC(=O)O)C(=O)N[C@H](C)C(=O)N[C@H](Cc1ccccc1)C(N)=O)C(C)C |  |  | human, plasma | oral, 500 mg daily, 8 h post-dose, day 13 |  | plasma concentration | 16.1 ng/mL
CCCC[C@H](OC(C)=O)c1ccccc1C(=O)O |  |  | beagle dog, both sexes, whole blood | intravenous, 0.5 mg/kg, 1 min, single dose |  | plasma concentration | 1390 ± 441 ng/mL
CCC(=O)N(C)c1ccc(Cl)c(Cl)c1 |  | LC-MS/MS | mouse C57BL/6 female, plasma | intravenous, 2 mg/kg, 1 h |  | plasma concentration | 62.2 ng/mL and 138 ng/mL and 49.4 ng/mL
C=CC(=O)Nc1cccc(Cn2ncc3cnc(Nc4cnn(CCOC)c4)nc32)c1 | WNK1 human | binding, KINOMEscan |  | 100 nM | lower = stronger binding | percent of control | 100%
COc1ccc2c(c1)CN(C(=O)CCN1CCC(Cc3ccccc3)CC1)CCS2 |  |  | paroxysmal atrial fibrillation patients, plasma | oral, 540 mg, 60 min |  | plasma concentration | 353 ± 73.2 ng/mL
Cc1cccc(Cn2ncc3c4cc(F)c(CN(C)C)cc4n(C)c3c2=O)n1 |  |  | Dutch-belted rabbit, plasma | intravitreal, 100 µM vitreous, 2.00 days |  | plasma concentration | not detected
COC1CN([C@H]2CC[C@H]([C@@]3(C)Oc4c(Cl)cc(C(=O)NCc5c(SC)cc(C)[nH]c5=O)c(C)c4O3)CC2)C1 |  | RNA-seq, item: AJUBA mouse homolog | mouse, HT-1376 xenograft, whole blood | dose not given | reference: vehicle | log2 fold change | 1.57
CC(C)OCCOCc1ccc(OCC(O)CN(N=O)C(C)C)cc1 (stereo not drawn) | Salmonella typhimurium | Ames test | TA1537 | 1580 µg/plate, 30 % hamster S9 | reference: solvent control | revertant fold increase | 0.8 fold
Cc1ncsc1-c1ccc(CNC(=O)[C@@H]2C[C@@H](O)CN2C(=O)[C@@H](NC(=O)COCC(C)(COCCOCCOCCNC(=O)C[C@@H]2N=C(c3ccc(Cl)cc3)c3c(sc(C)c3C)-n3c(C)nnc32)COCCOCCOCCNC(=O)C[C@@H]2N=C(c3ccc(Cl)cc3)c3c(sc(C)c3C)-n3c(C)nnc32)C(C)(C)C)cc1 |  |  | male C57BL/6 mice, plasma | subcutaneous, 5 mg/kg, 30 min, 20-fold diluted sample |  | plasma concentration | 1370 ng/mL and 1910 ng/mL
C=C(NC(=O)c1csc(-c2nc3c(cc2O)-c2nc(cs2)C(=O)NC(C(C)O)C(=O)NC(=C(C)OC)c2nc(cs2)C(=O)NC2c4nc(cs4)C(=O)NC(COC(=O)c4c5c6c(cccc6n4O)COC(=O)C(OC4CC(C)(O)C(N(C)C)C(C)O4)C2OC5)c2nc-3cs2)n1)C(N)=O (stereo not drawn) |  |  | cynomolgus monkey, male, plasma | intravenous infusion, 1 mg/kg single dose |  | clearance | 1.94 mL/min/kg
Cc1nn(-c2nc3c(F)cc(F)cc3s2)c(O)c1C(c1ccc(C(F)(F)F)cc1)c1c(C)nn(-c2nc3c(F)cc(F)cc3s2)c1O |  |  | ICR mouse | intravenous, 5 mg/kg, 0.25 h |  | plasma concentration | 8140 ng/mL and 12700 ng/mL and 16800 ng/mL
Cc1noc(C)c1Cn1cc(N2C(=O)CN(Cc3cccc(O[C@@H]4O[C@H](C(=O)O)[C@@H](O)[C@H](O)[C@H]4O)c3)C2=O)cn1 |  |  | rat Sprague-Dawley male, plasma | intravenous, 1 mg/kg of parent drug, 0.5 h |  | plasma concentration | 69 ng/mL
Nc1ncc(-c2cc(-c3cnn(CC(F)(F)F)c3)ncc2F)nc1C(=O)NC1CNCC(F)C1 (stereo not drawn) | STK39 | KINOMEscan |  | 1 µM | reference: DMSO control | remaining binding | 78%
